Published values of several laboratories.
Each numbered part is a random draw from the data of one study; scales do not carry over between parts. “And” joins repeats or separate records; there may be more than shown. ± marks the error that the study gave.
Chain of UniProt Q81Y92 (whole entry, looked up): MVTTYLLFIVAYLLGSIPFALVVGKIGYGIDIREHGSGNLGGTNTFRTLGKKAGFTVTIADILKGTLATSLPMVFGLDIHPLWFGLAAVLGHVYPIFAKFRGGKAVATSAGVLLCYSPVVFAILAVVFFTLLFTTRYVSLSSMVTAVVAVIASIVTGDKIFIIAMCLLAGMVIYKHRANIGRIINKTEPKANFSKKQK

Set 1 — observed: enzyme activity; action: inhibitor; tested at: 20 µM
Target: Replicase polyprotein 1ab, polymerase (rep, Severe acute respiratory syndrome coronavirus 2, UniProt P0DTD1)
SMILES | inhibition [%]
Cc1c(NC(=O)c2cccnc2)c(=O)n(-c2ccccc2)n1C | -0.61
CCOC(=O)Nc1ccc(NCc2ccc(F)cc2)cc1N | -6.21
CCC(=O)NC[C@@H]1C[C@H]1c1cccc2c1CCO2 | 0.34
C[N+](C)(C)CCOP(=O)(O)OP(=O)([O-])OC[C@H]1O[C@@H](n2ccc(N)nc2=O)[C@H](O)[C@@H]1O | 13.1
O=c1cc[nH]c(=O)[nH]1 | 0.34
COc1ccc(C(=O)CCC(=O)O)c2ccccc12 | 3.78
NCCS(=O)(=O)O | -0.86
COc1ccc(C(=O)C2CCN(CC(=O)N(Cc3nc4c(c(=O)[nH]3)COCC4)CC3CC3)CC2)cc1 | 1.23
O=C(Nc1ccc(C(F)(F)F)cn1)N1CCN(c2ncccc2C(F)(F)F)CC1 | -17.7
CN[C@H](CNC(=O)N1CCC[C@@H]([C@@H](OCCNC(=O)OC)c2cccc(Cl)c2)C1)C[C@H]1CCCOC1 | 0.5
CNS(=O)(=O)Nc1nccc(Cc2c(C)c3ccc(Oc4ncccn4)cc3oc2=O)c1F | 0.05
Oc1cccc(-c2nc(N3CCOCC3)c3oc4ncccc4c3n2)c1 | -0.3
Cc1cc(CCC[C@H](CC(=O)NO)C(=O)N[C@H](C(=O)N[C@H](C)c2ccccc2)C(C)(C)C)ccc1-c1ccccc1 | -2.02
C=CCc1ccccc1OCC(O)CNC(C)C (centres unmarked) | 4.12
CCn1cc(C(=O)O)c(=O)c2cc3c(cc21)OCO3 | 6.47
COc1ncnc(NS(=O)(=O)c2ccc(N)cc2)c1OC | 4.11
NCCCCN | 30.5
O=C1CC[C@@H](C(=O)N2CSC[C@H]2C(=O)O)N1 | 1.31
CNC(=S)C1(c2ccccn2)CCCS1 (centres unmarked) | 4.02
Nc1nccc(-c2ccc3noc(-c4ccc(Cl)cc4)c3c2)n1 | -1.99
COc1ccc2c(c1)[C@]13CCCC[C@@H]1[C@H](C2)N(C)CC3 | 23.4
c1ccc2c(c1)Nc1ccccc1S2 | -5.42
CCc1cc2cc(OC)c(OC)cc2c(Cc2ccccc2)n1 | 4.69
NC(=O)NCCC[C@H](N)C(=O)O | -2.56
Cn1ccc2cc(NC(=O)Nc3cccnc3)ccc21 | -7.88

Set 2 — cell line: HEK-293T; observed: pseudovirus infection; method: FDA-approved drug library screen; organism: VSV pseudotyped with SARS-CoV-2 spike; tested at: 10 µM; time: 16 h; baseline: vehicle-treated
Compound | GFP-positive cells
CCCC1O[C@@H]2C[C@H]3[C@@H]4CCC5=CC(=O)C=C[C@]5(C)[C@H]4[C@@H](O)C[C@]3(C)[C@]2(C(=O)CO)O1 (some centres unmarked) | 70%
CC(=O)OCC(=O)[C@@]1(O)CC[C@H]2[C@@H]3CCC4=CC(=O)CC[C@]4(C)[C@H]3C(=O)C[C@@]21C | 101%
CN(C)CCN(Cc1ccccc1)c1ccccn1 | 80.8%

Set 3 — observed: enzyme activity; action: inhibitor; notes: without DTT
Target: Replicase polyprotein 1ab, main protease (rep, Severe acute respiratory syndrome coronavirus 2, UniProt P0DTD1)
Structure (SMILES) | IC50
C[C@@H](CN1CC(=O)NC(=O)C1)N1CC(=O)NC(=O)C1 | 6.2 µM
C[C@@](Cc1ccc(O)c(O)c1)(NN)C(=O)O | 3.6 µM
Cc1ccc(-n2sc(=O)n(Cc3ccc(F)cc3)c2=O)cc1 | 0.15 µM and 0.23 µM

Single results of other studies
rep main protease: Replicase polyprotein 1ab, main protease (rep, Severe acute respiratory syndrome coronavirus 2, UniProt P0DTD1)
Compound | target or system | test | system | setting | scale | measurement | value
Cc1ccc(NC(=O)c2cc3c(=O)n4cccc(C)c4nc3n2C)cc1Cl | SARS-CoV-2 | viral replication, qPCR | Vero E6 | – | – | EC50 | 0.104 ± 0.00344 µM
CC[C@H](C)[C@H](NC(=O)[C@H](CC(C)C)NC(=O)[C@H](Cc1c[nH]c2ccccc12)NC(=O)[C@H](CCC(N)=O)NC(=O)[C@@H](NC(=O)[C@H](Cc1ccccc1)NC(=O)[C@H](C)NC(=O)[C@H](CCCCNC(=O)COCCOCCNC(=O)COCCOCCNC(=O)CC[C@H](NC(=O)CCCCCCCCCCCCCCCCCCC(=O)O)C(=O)O)NC(=O)[C@H](CCC(N)=O)NC(=O)[C@H](C)NC(=O)[C@@H](NC(=O)[C@H](CCCCN)NC(=O)[C@H](CC(=O)O)NC(=O)[C@H](CC(C)C)NC(=O)C(C)(C)NC(=O)[C@@H](NC(=O)[C@H](CO)NC(=O)[C@H](Cc1ccc(O)cc1)NC(=O)[C@H](CC(=O)O)NC(=O)[C@H](CO)NC(=O)[C@@H](NC(=O)[C@H](Cc1ccccc1)NC(=O)[C@@H](NC(=O)CNC(=O)[C@H](CCC(=O)O)NC(=O)C(C)(C)NC(=O)[C@@H](N)Cc1ccc(O)cc1)[C@@H](C)O)[C@@H](C)O)[C@@H](C)CC)[C@@H](C)CC)C(C)C)C(=O)N[C@@H](C)C(=O)NCC(=O)NCC(=O)N1CCC[C@H]1C(=O)N[C@@H](CO)C(=O)N[C@@H](CO)C(=O)NCC(=O)N[C@@H](C)C(=O)N1CCC[C@H]1C(=O)N1CCC[C@H]1C(=O)N1CCC[C@H]1C(=O)N[C@@H](CO)C(N)=O | – | – | human, plasma | 5/5/10/10 mg escalation, day 22, tau 168 h, geometric mean | – | AUC(0-tau) | 131 µg·h/mL
Nc1ccccc1-c1nc(-c2ccc(C(F)(F)F)cc2)no1 | Spike glycoprotein, receptor-binding domain (Severe acute respiratory syndrome coronavirus 2, UniProt P0DTC2) | spike RBD binding to ACE2, inhibitor, ELISA | – | 10 µM | – | inhibition | -98.1 ± 18.5%
O=C(O)c1ccc(-c2cccc(/C=N/NC(=O)c3cc(O)c(O)c(O)c3)c2)cc1 | Gag-Pol polyprotein, reverse transcriptase A502G/D256G (gag-pol, Human immunodeficiency virus type 1 group M subtype B, UniProt P04585, A1089G/D843G) | RNase H activity, inhibitor | HIV-1 | – | – | IC50 | 4 ± 1.3 µM
CC(C)(C)[C@H](NC(=O)C(F)(F)F)C(=O)N1C[C@H]2[C@@H]([C@H]1C(=O)N[C@H](C#N)C[C@@H]1CCNC1=O)C2(C)C | – | – | human, fasted | oral, 150 mg single dose, 28 days, no ritonavir | – | participants discontinued due to adverse events | 0%
CCCCCCc1ccc(O)cc1O | rep main protease | reporter gene (Gaussia luciferase), inhibitor | – | 20 µM | – | inhibition | -1.08%
O=C(NC(=O)c1c(F)cccc1F)Nc1cc(Cl)c(OC(F)(F)C(F)C(F)(F)F)cc1Cl (centres unmarked) | mouse MPNST tumor cells | high-content immunofluorescence imaging, refers to: nuclear SOX9 | – | 10 µM, 12 h, mean of 2 replicates | baseline: DMSO control, higher = more nuclear SOX9 | nuclear SOX9 intensity | 89.6 % of DMSO
C#C[C@]1(CO)O[C@@H](n2cnc3c(O)ncnc32)C[C@@H]1O | HIV-1 M184V | MTT | MT4 | – | – | IC50 | 0.356 ± 0.0772 µM
O=c1ccn([C@@H]2O[C@](F)(CO)[C@@H](O)[C@H]2O)c(=O)[nH]1 | Junin virus | viral replication | Vero C1008, Romero | – | – | EC50 | 0.11 ± 0.1 µM
CC(=O)COC(=O)/C=C(C)/C=C/C=C(C)/C=C/C1=C(C)CCCC1(C)C | SARS-CoV-2 | viral replication | Vero E6, USA-WA1/2020 | 2.5 µM | – | inhibition | 55.8%
CN1CCCC(n2nc(Cc3ccc(Cl)cc3)c3ccccc3c2=O)CC1 (centres unmarked) | Huh-7 | pseudovirus entry | MERS-CoV spike pseudovirus | – | – | EC50 | 2.59 ± 0.88 µM
Cn1c(C(=O)Nc2ccc(Cl)cc2)cc2c(=O)n3ccccc3nc21 | SARS-CoV-2 | viral replication, qPCR | Vero E6 | – | – | EC50 | 0.109 µM
Oc1ccc(/C=N/c2ccccc2/N=C/c2ccc(O)c(O)c2)cc1O | vaccinia virus | viral replication | HT-1080 | – | – | EC50 | 18 µM
COc1ccc2c(c1)[C@@H]1C[C@]1(C(=O)N1[C@@H]3CC[C@H]1CN(C)C3)Cn1c-2c(C2CCCCC2)c2ccc(C(=O)NS(=O)(=O)N(C)C)cc21 | SARS-CoV-2 | viral replication | Vero E6, USA-WA1/2020 | 2.5 µM | – | inhibition | 54.6%
CCCCCCCCCCCCCCCC(=O)NS(=O)(=O)Oc1ccc(OC)cc1 | Glycerol-3-phosphate acyltransferase 3 (plsY3, Bacillus anthracis, UniProt Q81Y92) | inhibitor | – | – | – | IC50 | 35 µM
Nc1ccn([C@@H]2O[C@H](COP(=O)(O)OP(=O)(O)OP(=O)(O)O)[C@@H](O)[C@H]2O)c(=O)n1 | Replicase polyprotein 1ab, nsp12 with nsp7/nsp8 (rep, Severe acute respiratory syndrome coronavirus 2, UniProt P0DTD1) | substrate | – | templating base G | – | Km | 65 ± 10 µM
OC1CCCCC1N1CCC(c2ccccc2)CC1 (centres unmarked) | mouse MPNST tumor cells | high-content nuclear imaging, refers to: cell number | – | 10 µM, 12 h, mean of 2 replicates | baseline: plate mean, higher = more cells | nuclei count | 0.652 z-score
CC(C)(C)[C@@H]1NC(=O)O[C@@H]2CCC[C@H]2OC/C=C/C(F)(F)c2nc3ccccc3nc2O[C@@H]2C[C@@H](C(=O)N[C@]3(C(=O)NS(=O)(=O)C4(C)CC4)C[C@H]3C(F)F)N(C2)C1=O | rep main protease | reporter gene (Gaussia luciferase), inhibitor | – | 20 µM | – | inhibition | 3.56%
CC(C)C[C@H](NC(=O)CNC(=O)[C@H](CC(C)C)NC(=O)[C@H](CC(C)C)NC(=O)[C@H](CCCCN)NC(=O)[C@@H](N)CCCCN)C(=O)N[C@@H](CC(C)C)C(=O)N[C@@H](CC(C)C)C(=O)N[C@@H](CCCCN)C(=O)N[C@@H](CC(C)C)C(=O)N[C@@H](CCCCN)C(=O)N[C@@H](CC(C)C)C(=O)N[C@@H](CCCCN)C(=O)O | HEK-293T | cell death | – | 24 h, 10% cell death | – | lowest cytotoxic concentration | 256 µg/mL

Repeated from above (single results of other studies):
Compound | target or system | test | system | setting | scale | measurement | value
O=c1ccn([C@@H]2O[C@](F)(CO)[C@@H](O)[C@H]2O)c(=O)[nH]1 | Junin virus | viral replication | Vero C1008, Romero | – | – | EC50 | 0.11 ± 0.1 µM
CC(=O)COC(=O)/C=C(C)/C=C/C=C(C)/C=C/C1=C(C)CCCC1(C)C | SARS-CoV-2 | viral replication | Vero E6, USA-WA1/2020 | 2.5 µM | – | inhibition | 55.8%
CN1CCCC(n2nc(Cc3ccc(Cl)cc3)c3ccccc3c2=O)CC1 (centres unmarked) | Huh-7 | pseudovirus entry | MERS-CoV spike pseudovirus | – | – | EC50 | 2.59 ± 0.88 µM
Cn1c(C(=O)Nc2ccc(Cl)cc2)cc2c(=O)n3ccccc3nc21 | SARS-CoV-2 | viral replication, qPCR | Vero E6 | – | – | EC50 | 0.109 µM
Oc1ccc(/C=N/c2ccccc2/N=C/c2ccc(O)c(O)c2)cc1O | vaccinia virus | viral replication | HT-1080 | – | – | EC50 | 18 µM
COc1ccc2c(c1)[C@@H]1C[C@]1(C(=O)N1[C@@H]3CC[C@H]1CN(C)C3)Cn1c-2c(C2CCCCC2)c2ccc(C(=O)NS(=O)(=O)N(C)C)cc21 | SARS-CoV-2 | viral replication | Vero E6, USA-WA1/2020 | 2.5 µM | – | inhibition | 54.6%
CCCCCCCCCCCCCCCC(=O)NS(=O)(=O)Oc1ccc(OC)cc1 | Glycerol-3-phosphate acyltransferase 3 (plsY3, Bacillus anthracis, UniProt Q81Y92) | inhibitor | – | – | – | IC50 | 35 µM
Nc1ccn([C@@H]2O[C@H](COP(=O)(O)OP(=O)(O)OP(=O)(O)O)[C@@H](O)[C@H]2O)c(=O)n1 | Replicase polyprotein 1ab, nsp12 with nsp7/nsp8 (rep, Severe acute respiratory syndrome coronavirus 2, UniProt P0DTD1) | substrate | – | templating base G | – | Km | 65 ± 10 µM
